Measurements gathered from unrelated publications.
A part holds a random share of what one study measured.
UniProt P53779, sequence (whole entry, looked up): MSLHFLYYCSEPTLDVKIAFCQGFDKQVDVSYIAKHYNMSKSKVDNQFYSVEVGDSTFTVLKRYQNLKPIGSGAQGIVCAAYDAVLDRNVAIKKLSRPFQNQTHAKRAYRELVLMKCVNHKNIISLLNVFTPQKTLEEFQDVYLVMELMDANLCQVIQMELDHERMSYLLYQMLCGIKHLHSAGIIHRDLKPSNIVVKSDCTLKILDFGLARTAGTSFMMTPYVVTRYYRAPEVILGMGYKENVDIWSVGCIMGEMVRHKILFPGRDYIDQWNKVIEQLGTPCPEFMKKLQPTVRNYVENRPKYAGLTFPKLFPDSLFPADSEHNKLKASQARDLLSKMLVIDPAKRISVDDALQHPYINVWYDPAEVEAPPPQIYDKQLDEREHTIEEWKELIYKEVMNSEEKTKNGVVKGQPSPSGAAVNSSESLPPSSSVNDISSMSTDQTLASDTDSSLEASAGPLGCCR
UniProt Q9BVS4, sequence (whole entry, looked up): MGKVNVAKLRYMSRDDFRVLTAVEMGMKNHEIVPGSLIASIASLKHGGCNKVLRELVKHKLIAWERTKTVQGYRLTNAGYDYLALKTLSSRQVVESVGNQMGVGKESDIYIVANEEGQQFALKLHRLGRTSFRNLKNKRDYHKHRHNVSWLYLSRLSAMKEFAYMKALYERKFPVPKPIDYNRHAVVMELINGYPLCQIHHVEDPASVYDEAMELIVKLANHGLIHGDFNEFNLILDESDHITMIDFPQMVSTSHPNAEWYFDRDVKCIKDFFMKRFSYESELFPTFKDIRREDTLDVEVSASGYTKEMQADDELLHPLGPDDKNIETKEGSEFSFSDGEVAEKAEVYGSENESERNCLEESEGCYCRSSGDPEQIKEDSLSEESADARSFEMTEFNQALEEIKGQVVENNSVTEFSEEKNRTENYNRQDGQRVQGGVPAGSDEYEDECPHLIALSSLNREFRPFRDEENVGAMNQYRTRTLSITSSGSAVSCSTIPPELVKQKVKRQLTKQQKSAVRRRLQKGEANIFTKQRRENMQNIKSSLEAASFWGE
UniProt P06241, sequence (whole entry, looked up): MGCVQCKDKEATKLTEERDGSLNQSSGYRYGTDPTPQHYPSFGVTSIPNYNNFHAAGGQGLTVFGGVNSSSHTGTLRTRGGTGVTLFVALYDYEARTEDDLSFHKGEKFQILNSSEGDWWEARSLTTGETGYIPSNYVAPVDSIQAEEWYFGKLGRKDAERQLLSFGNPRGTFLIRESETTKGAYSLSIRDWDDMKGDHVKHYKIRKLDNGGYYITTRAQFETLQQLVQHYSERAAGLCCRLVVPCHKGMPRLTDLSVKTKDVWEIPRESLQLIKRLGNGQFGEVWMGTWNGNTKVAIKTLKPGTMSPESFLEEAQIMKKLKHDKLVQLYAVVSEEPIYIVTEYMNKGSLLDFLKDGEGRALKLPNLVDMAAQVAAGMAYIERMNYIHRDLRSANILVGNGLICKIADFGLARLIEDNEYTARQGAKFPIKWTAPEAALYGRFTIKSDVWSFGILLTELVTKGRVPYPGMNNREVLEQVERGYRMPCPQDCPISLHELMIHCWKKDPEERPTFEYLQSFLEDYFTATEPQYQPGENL
UniProt Q96PN8, sequence (whole entry, looked up): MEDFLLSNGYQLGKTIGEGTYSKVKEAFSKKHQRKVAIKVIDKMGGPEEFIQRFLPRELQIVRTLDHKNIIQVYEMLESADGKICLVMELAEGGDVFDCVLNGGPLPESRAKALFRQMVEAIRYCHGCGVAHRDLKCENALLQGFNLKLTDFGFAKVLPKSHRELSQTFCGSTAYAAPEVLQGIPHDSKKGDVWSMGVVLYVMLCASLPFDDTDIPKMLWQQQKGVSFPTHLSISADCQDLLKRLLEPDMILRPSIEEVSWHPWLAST
UniProt Q9NWZ3, sequence (whole entry, looked up): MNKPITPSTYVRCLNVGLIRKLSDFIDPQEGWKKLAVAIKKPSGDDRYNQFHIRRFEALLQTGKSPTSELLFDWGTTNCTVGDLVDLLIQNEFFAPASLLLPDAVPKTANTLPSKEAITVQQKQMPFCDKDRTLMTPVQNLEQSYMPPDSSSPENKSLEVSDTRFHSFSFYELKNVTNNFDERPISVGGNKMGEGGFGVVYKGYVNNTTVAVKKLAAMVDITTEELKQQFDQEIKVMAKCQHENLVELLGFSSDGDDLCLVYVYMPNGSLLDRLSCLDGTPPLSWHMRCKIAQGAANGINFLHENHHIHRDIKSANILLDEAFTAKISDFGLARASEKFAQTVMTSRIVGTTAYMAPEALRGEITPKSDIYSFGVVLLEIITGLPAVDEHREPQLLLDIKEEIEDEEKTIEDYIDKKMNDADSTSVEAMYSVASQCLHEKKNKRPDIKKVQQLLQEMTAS
UniProt Q9NQU5, sequence (whole entry, looked up): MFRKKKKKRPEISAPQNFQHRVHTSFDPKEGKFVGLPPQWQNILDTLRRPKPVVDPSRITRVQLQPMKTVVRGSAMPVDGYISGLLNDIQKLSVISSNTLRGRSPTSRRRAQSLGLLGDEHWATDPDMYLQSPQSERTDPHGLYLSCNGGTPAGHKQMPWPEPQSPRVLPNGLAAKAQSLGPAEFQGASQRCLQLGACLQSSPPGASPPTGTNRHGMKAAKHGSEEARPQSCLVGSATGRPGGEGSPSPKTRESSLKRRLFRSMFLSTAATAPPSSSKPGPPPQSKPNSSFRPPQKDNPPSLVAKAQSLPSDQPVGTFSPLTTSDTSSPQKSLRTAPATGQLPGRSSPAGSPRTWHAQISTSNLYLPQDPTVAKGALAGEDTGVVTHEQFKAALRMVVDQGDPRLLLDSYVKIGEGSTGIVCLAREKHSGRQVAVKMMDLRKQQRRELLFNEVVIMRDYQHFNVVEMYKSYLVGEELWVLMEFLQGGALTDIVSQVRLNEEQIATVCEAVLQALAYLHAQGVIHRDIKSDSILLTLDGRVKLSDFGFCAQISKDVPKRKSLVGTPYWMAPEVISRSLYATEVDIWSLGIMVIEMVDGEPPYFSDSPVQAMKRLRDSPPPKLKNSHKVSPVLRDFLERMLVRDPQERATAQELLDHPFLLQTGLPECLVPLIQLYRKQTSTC
UniProt Q96D53, sequence (whole entry, looked up): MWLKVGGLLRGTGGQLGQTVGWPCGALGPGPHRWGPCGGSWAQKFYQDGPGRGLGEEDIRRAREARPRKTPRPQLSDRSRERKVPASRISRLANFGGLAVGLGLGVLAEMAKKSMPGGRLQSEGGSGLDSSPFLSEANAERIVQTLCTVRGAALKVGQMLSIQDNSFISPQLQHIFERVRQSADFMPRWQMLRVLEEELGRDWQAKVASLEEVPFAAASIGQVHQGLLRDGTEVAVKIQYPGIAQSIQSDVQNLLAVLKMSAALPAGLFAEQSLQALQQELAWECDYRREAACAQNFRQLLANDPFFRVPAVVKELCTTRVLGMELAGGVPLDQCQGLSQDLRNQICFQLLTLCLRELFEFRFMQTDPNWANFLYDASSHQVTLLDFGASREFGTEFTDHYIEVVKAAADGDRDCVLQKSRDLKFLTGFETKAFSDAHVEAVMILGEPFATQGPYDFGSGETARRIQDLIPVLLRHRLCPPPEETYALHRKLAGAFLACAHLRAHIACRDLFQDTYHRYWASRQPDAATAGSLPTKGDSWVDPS

Series 1
SMILES: COc1ccc(-c2c(Nc3ccccn3)[nH]c3c(C4=CCCCC4)c(-c4ccccc4)nn3c2=O)cc1
Sample: plasma
Route: oral
Quantity: plasma concentration, geometric mean
human patients; 200 mg once daily, 0 h, cycle 1: 4060 ng/mL
LC-MS/MS; human; 50 mg once daily, 0.5 h, cycle 1: 1070 ng/mL
LC-MS/MS; human; 50 mg once daily, 3 h, cycle 1: 1570 ng/mL
cancer patients; 50 mg, 24 h post-dose, single dose: 175 ng/mL
LC-MS/MS; human; 200 mg twice daily, 6 h, single dose: 1360 ng/mL
cancer patients; 100 mg, 24 h post-dose, single dose: 634 ng/mL
LC-MS/MS; human; 200 mg twice daily, 24 h, single dose: 790 ng/mL
cancer patients; 400 mg, 8 h post-dose, single dose: 977 ng/mL
human patients; 150 mg once daily, 3 h, cycle 1: 4670 ng/mL
LC-MS/MS; human; 200 mg twice daily, 72 h, single dose: 148 ng/mL
cancer patients; 150 mg, 48 h post-dose, single dose: 315 ng/mL
cancer patients; 200 mg, 24 h post-dose, single dose: 877 ng/mL

Series 2
Target: Protein kinase C epsilon type (PRKCE, Homo sapiens, UniProt Q02156)
UniProt Q02156, sequence (whole entry, looked up): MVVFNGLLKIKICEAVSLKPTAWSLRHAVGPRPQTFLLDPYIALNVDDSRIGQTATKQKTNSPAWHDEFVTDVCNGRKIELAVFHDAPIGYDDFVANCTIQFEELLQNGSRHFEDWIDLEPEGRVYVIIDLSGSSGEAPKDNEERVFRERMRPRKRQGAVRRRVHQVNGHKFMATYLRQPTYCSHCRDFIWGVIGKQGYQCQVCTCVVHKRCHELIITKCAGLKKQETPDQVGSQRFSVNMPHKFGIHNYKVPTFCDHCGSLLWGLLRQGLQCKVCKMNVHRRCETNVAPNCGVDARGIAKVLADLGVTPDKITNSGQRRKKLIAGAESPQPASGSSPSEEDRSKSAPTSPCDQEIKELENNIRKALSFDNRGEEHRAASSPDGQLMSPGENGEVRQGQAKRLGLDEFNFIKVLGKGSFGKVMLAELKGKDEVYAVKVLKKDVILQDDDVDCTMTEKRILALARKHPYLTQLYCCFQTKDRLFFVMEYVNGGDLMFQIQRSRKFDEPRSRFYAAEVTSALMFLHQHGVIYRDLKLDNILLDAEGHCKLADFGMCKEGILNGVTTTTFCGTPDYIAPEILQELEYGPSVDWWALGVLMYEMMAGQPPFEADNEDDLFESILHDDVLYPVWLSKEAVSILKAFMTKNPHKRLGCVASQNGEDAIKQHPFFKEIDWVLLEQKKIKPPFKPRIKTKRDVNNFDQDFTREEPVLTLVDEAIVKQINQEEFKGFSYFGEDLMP
Effect on: enzyme activity
Mode: inhibitor
Concentration: 0.5 µM
Reference: control
Quantity: remaining activity
Cn1nc2c3c(cccc31)C(=O)c1ccccc1-2: 95.7%
CCN(CC)C(=O)c1ccc(Nc2nc(OCC3CCCCC3)c3[nH]cnc3n2)cc1: 76.6%
N#Cc1c(NC(=O)c2cccc3ccccc23)sc2c1CCCC2: 99.1%
Ic1cccc(CSc2nnc(-c3ccncc3)o2)c1: 86.5%
Cc1cc2ncc(-c3ccccc3)nc2cc1C: 99.6%
COc1cc2ncnc(Nc3cccc(Cl)c3)c2cc1OC: 97.8%
Cc1nc2cc3nc(-c4cccs4)cnc3cc2n1C: 108%
CN([C@@H](Cc1ccc(OS(=O)(=O)c2cccc3cnccc23)cc1)C(=O)N1CCN(c2ccccc2)CC1)S(=O)(=O)c1cccc2cnccc12: 99.5%
c1ccc(-c2cnc(Nc3ccc(OCCN4CCCC4)cc3)s2)cc1: 90.5%
Cc1cn(-c2cc(NC(=O)c3ccc(C)c(Nc4nccc(-c5cccnc5)n4)c3)cc(C(F)(F)F)c2)cn1: 96.9%
O=c1cc(-c2cccc3c2Sc2ccccc2S3)oc(N2CCOCC2)c1: 109%
CCN(CC)CCNC(=O)c1c(C)[nH]c(/C=C2\C(=O)Nc3ccc(Cl)cc32)c1C: 102%
N#C/C(=C\c1ccc(O)c(O)c1)C(=O)NCc1ccccc1: 100%
C[C@@H]1CCN(C(=O)CC#N)C[C@@H]1N(C)c1ncnc2[nH]ccc12: 98.5%
c1ccc(-c2[nH]ncc2-c2ccnc3ccccc23)nc1: 101%
COc1cc2ncnc(Nc3ccc(O)c(Br)c3)c2cc1OC: 93.2%
CCOc1nc(NC(=O)Cc2cc(OC)ccc2OC)cc(N)c1C#N: 98.8%
O=C(NC(NC(=S)Nc1ccc(F)c([N+](=O)[O-])c1)C(Cl)(Cl)Cl)C(c1ccccc1)c1ccccc1 (centres unmarked): 109%
COc1cc2c(cc1OC)-c1[nH]nc(Nc3cccc(F)c3)c1C2: 87.9%
CCN(CC)CCNC(=O)c1c(C)[nH]c(/C=C2\C(=O)Nc3ccc(F)cc32)c1C: 98%
O=C(Nc1cccc(Nc2nccc(Nc3cccc(C(F)(F)F)c3)n2)c1)C1CC1: 106%
O=C1c2ccccc2-c2n[nH]c3cccc1c23: 98.5%

Series 3
Target: Calcium/calmodulin-dependent protein kinase type II subunit alpha (CAMK2A, Homo sapiens, UniProt Q9UQM7)
UniProt Q9UQM7, sequence (whole entry, looked up): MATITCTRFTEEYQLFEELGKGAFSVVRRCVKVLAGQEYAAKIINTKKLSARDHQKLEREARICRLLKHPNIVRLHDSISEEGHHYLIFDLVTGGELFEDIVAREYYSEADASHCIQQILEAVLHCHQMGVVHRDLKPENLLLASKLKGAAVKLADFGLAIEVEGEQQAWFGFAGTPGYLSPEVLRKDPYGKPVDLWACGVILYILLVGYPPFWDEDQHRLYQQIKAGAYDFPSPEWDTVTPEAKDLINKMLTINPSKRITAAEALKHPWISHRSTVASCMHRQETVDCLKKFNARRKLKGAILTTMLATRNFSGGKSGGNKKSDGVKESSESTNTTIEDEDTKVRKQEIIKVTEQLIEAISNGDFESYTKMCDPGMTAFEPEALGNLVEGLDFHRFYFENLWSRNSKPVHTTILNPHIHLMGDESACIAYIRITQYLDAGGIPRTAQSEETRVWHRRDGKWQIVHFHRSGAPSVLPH
Effect on: enzyme activity
Mode: inhibitor
Concentration: 10 µM
Quantity: inhibition
O=C[C@H](O)[C@@H](O)[C@H](O[C@H]1O[C@H](CO)[C@@H](O[C@H]2O[C@H](CO)[C@@H](O[C@H]3O[C@H](CO)[C@@H](O[C@H]4O[C@H](CO)[C@@H](O)[C@H](O)[C@H]4O)[C@H](O)[C@H]3O)[C@H](O)[C@H]2O)[C@H](O)[C@H]1O)[C@H](O)CO: 20%
c1cc2c(c3c1CC1c4cc5c(cc4CCN1C3)OCO5)OCO2 (racemic): -25%
O=C1CCN([C@@H]2O[C@H](CO)[C@@H](O)[C@H]2O)C(=O)N1: 27%
O=C(O)C[C@@H]1C(=O)O[C@H]2[C@@H]3OC(=O)c4cc(O)c(O)c(O)c4-c4c(cc(O)c(O)c4O)C(=O)OC[C@H]2O[C@@H](OC(=O)c2cc(O)c(O)c(O)c2)[C@@H]3OC(=O)c2cc(O)c(O)c3c2[C@H]1[C@H](O)C(=O)O3: -74%
CN(C)C(N)=NCCC[C@H](N)C(=O)O: -17%

Series 4
Compound: C[C@H](NC(=O)c1cnc2n1[C@](C)(Cc1ccc(C#N)cc1)C(=O)N2c1cc(Cl)c(F)c(Cl)c1)C(=O)NC1(c2ccccn2)CC1
Method: competition with immobilised ligand
Concentration: 1 µM
Quantity: remaining binding
Mitogen-activated protein kinase 7 (MAPK7, Homo sapiens, UniProt Q13164); cell-free assay: 100%
Tyrosine-protein kinase ABL1, phosphorylated (ABL1, Homo sapiens, UniProt P00519, F317L); cell-free assay: 100%
Atypical kinase COQ8B, mitochondrial (COQ8B, Homo sapiens, UniProt Q96D53); cell-free assay: 100%
Serine/threonine-protein kinase TAO2 (TAOK2, Homo sapiens, UniProt Q9UL54); cell-free assay: 92%
Protein kinase C eta type (PRKCH, Homo sapiens, UniProt P24723); cell-free assay: 90%
Serine/threonine-protein kinase PAK 6 (PAK6, Homo sapiens, UniProt Q9NQU5); cell-free assay: 96%
Testis-specific serine/threonine-protein kinase 3 (TSSK3, Homo sapiens, UniProt Q96PN8); cell-free assay: 100%
Serine/threonine-protein kinase RIO2 (RIOK2, Homo sapiens, UniProt Q9BVS4); cell-free assay: 100%
5'-AMP-activated protein kinase catalytic subunit alpha-2 (PRKAA2, Homo sapiens, UniProt P54646); cell-free assay: 100%
Tyrosine-protein kinase ABL1, non-phosphorylated (ABL1, Homo sapiens, UniProt P00519, Q252H); cell-free assay: 90%
Tyrosine-protein kinase ABL1, phosphorylated (ABL1, Homo sapiens, UniProt P00519, E255K); binding: 93%
Mitogen-activated protein kinase 10 (MAPK10, Homo sapiens, UniProt P53779); cell-free assay: 91%
Phosphorylase b kinase gamma catalytic chain, liver/testis isoform (PHKG2, Homo sapiens, UniProt P15735); cell-free assay: 100%
Mitogen-activated protein kinase 13 (MAPK13, Homo sapiens, UniProt O15264); cell-free assay: 100%
Tyrosine-protein kinase ABL1, phosphorylated (ABL1, Homo sapiens, UniProt P00519, T315I); cell-free assay: 100%
Serine/threonine-protein kinase mTOR (MTOR, Homo sapiens, UniProt P42345); cell-free assay: 96%
Tyrosine-protein kinase ITK/TSK (ITK, Homo sapiens, UniProt Q08881); cell-free assay: 83%
3-phosphoinositide-dependent protein kinase 1 (PDPK1, Homo sapiens, UniProt O15530); cell-free assay: 100%
Interleukin-1 receptor-associated kinase 4 (IRAK4, Homo sapiens, UniProt Q9NWZ3); cell-free assay: 100%
Tyrosine-protein kinase Fyn (FYN, Homo sapiens, UniProt P06241); cell-free assay: 70%

For quick reference, copied from above (series 4):
Phosphorylase b kinase gamma catalytic chain, liver/testis isoform (PHKG2, Homo sapiens, UniProt P15735); cell-free assay: 100%
Mitogen-activated protein kinase 13 (MAPK13, Homo sapiens, UniProt O15264); cell-free assay: 100%
Tyrosine-protein kinase ABL1, phosphorylated (ABL1, Homo sapiens, UniProt P00519, T315I); cell-free assay: 100%
Serine/threonine-protein kinase mTOR (MTOR, Homo sapiens, UniProt P42345); cell-free assay: 96%
Tyrosine-protein kinase ITK/TSK (ITK, Homo sapiens, UniProt Q08881); cell-free assay: 83%
3-phosphoinositide-dependent protein kinase 1 (PDPK1, Homo sapiens, UniProt O15530); cell-free assay: 100%
